Measured values from different studies.
Every numbered part comes from another study and shows a few of its results, in no order. Positions count from the first letter of the parent shown.

Study 1
Target: Ras GTPase-activating protein-binding protein 1, C-terminal RGG region (G3BP1, Homo sapiens, UniProt Q13283)
Sequence of UniProt Q13283 (whole entry, looked up): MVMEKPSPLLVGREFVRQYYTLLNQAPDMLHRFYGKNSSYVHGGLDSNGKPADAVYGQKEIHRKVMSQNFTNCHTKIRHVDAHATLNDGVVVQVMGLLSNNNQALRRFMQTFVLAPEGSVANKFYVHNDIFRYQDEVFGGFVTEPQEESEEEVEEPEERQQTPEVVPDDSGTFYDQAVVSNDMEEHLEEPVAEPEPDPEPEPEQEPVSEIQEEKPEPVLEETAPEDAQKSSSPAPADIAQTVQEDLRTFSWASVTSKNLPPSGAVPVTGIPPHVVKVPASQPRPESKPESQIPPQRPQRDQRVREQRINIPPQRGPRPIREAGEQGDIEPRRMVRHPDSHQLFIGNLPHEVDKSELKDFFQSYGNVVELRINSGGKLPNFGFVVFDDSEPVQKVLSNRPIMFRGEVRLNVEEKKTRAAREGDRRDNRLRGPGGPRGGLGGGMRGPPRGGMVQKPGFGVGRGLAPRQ
Method: RNA Bind-n-Seq
Form: RNA
Medium: in vitro
Tested at: 1 µM
Notes: whole 134-nt RNA, ends assumed
Added: 150 mM KCl
Baseline: input library
Reading: higher = stronger binding
Measurement: log2 enrichment
All sequences stand within: GGGAGUUCUACAGUCCGACGAUC … UGGAAUUCUCGGGUGUCAAGG
ACCAUGCAGGUGGGCAUCUUUGGGAAGUGGGGCAAGGGGGGGAUAGGGAGGGGGGUAACACUUUGGGAACAGGUGGUCCGAGGUCGUUUC: 1.46
CCUCAAGUCCUGUGCUACACAUCGUAUGUACCGAAUCGGGAAGGAAGGAAGGAAAGUAUUAUGUUACGCCGUUCGGAUCUGCACUUCCAG: -0.823
CAAGUCCUGUGCUACACAUCGUAUGUACCGAAUCGGGUGGGUGGGUUUUUUUGGGAAAGUAUUAUGUUACGCCGUUCGGAUCUGCACUUC: 0.818
CACAGACAACACGCACCCACACAGACACAGAGGGAAGGGGUUGGGAUGGGGACAGGGUGCACAGUAGGGCGGGGUAGGACCCCAGCCCCU: 0.492
CCUGUGCUACACAUCGUAUGUACCGAAUCAAAGUGUGUGUGUGUAAAGUGUGUGUGUAAAAAAGUAUUAUGUUACGCCGUUCGGAUCUGC: -0.349
CCUCAAGUCCUGUGCUACACAUCGUAUGUACCGAAUCGGGUGGGAGGGUGGGAAAGUAUUAUGUUACGCCGUUCGGAUCUGCACUUCCAG: 1.85
UCCUGUGCUACACAUCGUAUGUACCGAAUCGGUUUUUUGGGGUUUUUUGGUUUUUUGGGAAAGUAUUAUGUUACGCCGUUCGGAUCUGCA: -0.725
CCUGUGCUACACAUCGUAUGUACCGAAUCGGGAAAAAAAGGGAAAAAAAGGAAAAAAAGGAAAGUAUUAUGUUACGCCGUUCGGAUCUGC: -1.63
CCUCAAGUCCUGUGCUACACAUCGUAUGUACCGAAUCGGAAAGGUUUGGUGGAAAGUAUUAUGUUACGCCGUUCGGAUCUGCACUUCCAG: -1.33
UGGCCCUGGUGGCAUGCGGGUAGGAAGAGGUGGCCUCAUGGAUCGUGGUGGUCCCGGUGGAAUGUUCAGAGGUGGCCGUGGUGGAGACAG: 2.29
CAAGUCCUGUGCUACACAUCGUAUGUACCGAAUCGGGAAAGGGAAAGGGGAAAGGGAAAGUAUUAUGUUACGCCGUUCGGAUCUGCACUU: 1.4
UGGGCGGUGGAUUUUGUUUAUUUUUUUAGCUCAUUUCCAGGGGUGGGAAUUUUUUUUUAAUAUGUGUCAUGAAUAAAGUUGUUUUUGAAA: 4.2
CGGCAGUAGCAGCAGCGCCGGGUCCCGUGCGGAGGUGCUCCUCGCAGAGUUGUUUCUCGAGCAGCGGCAGUUCUCACUACAGCGCCAGGA: -1.38
AAGUCCUGUGCUACACAUCGUAUGUACCGAAUCGGGGAGGGGUUUUUGGGGUGGGGAAAGUAUUAUGUUACGCCGUUCGGAUCUGCACUU: 2.01

Study 2
Target: ABI1, truncated, D143A, DHFR fusion (Arabidopsis thaliana)
Method: DHFR PCA, deep sequencing
Medium: yeast
Notes: methotrexate growth selection, single substitutions
Added: (+)-ABA 17 µM
Baseline: wild-type fitted maximum
Reading: higher = stronger binding
Measurement: relative binding score
Starting sequence: PYL1, truncated, DHFR fusion (Arabidopsis thaliana); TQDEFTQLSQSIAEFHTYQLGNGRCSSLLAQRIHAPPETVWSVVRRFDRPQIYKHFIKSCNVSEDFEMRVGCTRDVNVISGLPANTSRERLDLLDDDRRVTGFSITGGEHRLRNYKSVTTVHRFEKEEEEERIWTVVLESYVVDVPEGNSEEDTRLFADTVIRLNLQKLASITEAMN
S11L: 66.2%
E109M: 59.2%
R155W: -2%
S171K: 94.3%
E125V: 94.2%
L8G: 8.27%
Y115W: 19.6%
R46G: 38.6%
R123Q: 98.8%
R32P: 62.9%
R99T: 13.7%
Y53A: 1.13%
L93H: 71.9%
S140Y: -2.75%
S140R: 0.0902%
A175H: 87.1%

Study 3
Target: RNA binding protein fox-1 homolog 2, RRM domain, GST-SBP tag (RBFOX2, Homo sapiens, UniProt O43251-10, residues 100-194)
Method: RNA Bind-n-Seq
Form: RNA
Medium: in vitro
Tested at: 365 nM
Notes: natural RNA segment, single round, ends assumed
Baseline: no-protein control
Reading: higher = stronger binding
Measurement: RBNS enrichment (R)
All sequences stand within: GGGAGUUCUACAGUCCGACGAUC … UGGAAUUCUCGGGUGCCAA
Residues (chain): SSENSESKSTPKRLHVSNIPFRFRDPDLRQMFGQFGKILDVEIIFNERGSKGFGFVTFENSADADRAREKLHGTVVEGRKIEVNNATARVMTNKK
CUGUCUUCCAGUACUGAUAGAAGAUGCUCCUGGGCUUCAUUCUGGAUUGUUAAACAGUAGAAAUGCAUGUCCUUCCCCAGUAAGCGGAGGACCAAUUUCUCAAGUCUCAG: 0.512
GCGCCGCAGCUGCAGCCUGACAGGAUGCAGUGGGGGCGUUCCUGCCCCGAGGACUGUGGCAUUGUCACCUUCACAGCAGACAGAGCUGCCAGGCCAUGAUGGGCUGGCGA: 0.241
GCGGAGACCAUUUCCAGGCCUUAUUGAGACCAGACCCCAAGUCCCCCACCCCCAUCCUGCUCCAGCGUUUCCUCUAACAGGGACCAGCUCUCCGCUUUGCCCCCACGGGG: 0.363
UACAGCCUCUGGCGAGGGCUCUGUGGAGAUUUUAAUUUUAGAAGGGGGCAUGAUGGCAGUGUUUCUCUUUUAGGACAACACCCACGGAACACUCAAAGGCUGUGUGACUU: 0.574
UGAGGGUCCACAGUGAACCUUGAUCAAAUUGCACAGUGGGUUGUUCCUCCACACACCCUCCUUUUUUUACGGUCAAUAUAUUUGUAAAUGGUACAAGAUGAAGGACAACA: 0.548
UUAAACUACAAAACUAAUAUGUAUGUGUACCAAACUGAUUUAAAAUAAAUGUUUAUUAGUCUCUUGAUCAAAAGUGUCAUAUUUUGAUUAUGAAAUUAACAUUGUGUUUG: 0.393
CAAAGUACAUUGUAAAAUAAAGUUGAGCUUAGUUUUUUUUAAAAAAAAAAACAAAGCAACAAAUUAACUAGAUACAGAAUAAUGGAGAACAAGUUGUUAAAACAUUUAAU: 0.472
UUAAACUGGUAUCUUUUCUUAGUGGUACCCAUUCAAUGUAAGCUGGUCCAUGGGAAUGGACAUGAAGAGGAUUUCACAGUAUGUAGAGCAGAAGGCACGUGAAUGUGUUU: 1.17
UUUUUUAAAUUAAUGAAAAUAUGUAAUAUUAAUAGUUAUUAUUUACUGGUGCAGAUGGUUGACAUUUUUCCCUAUUUUCCUCACUUUAUGAAAGAAUUUAAAUAAAAAAA: 0.659
CGUGGGCACUGCUGAGGAAUGAUCCUAGUGGUAGGUCAGAAGAAGAUGCUGUGAACACCAGGACUUUAAUCUUAUGCUUAAAAUGCCAGAUGUUGUUCGGGGGACAACUU: 0.679
CUGAAAGAAUUGUUAAUGAAACCUCAUUCUUUAUGUUUAUCUCAGUGUCUCUUUACAUGGAUAUUUUGCCUGUCAAAUGAAUUGAUAGCUAAUAAAAGUCAACAAGCCAU: 0.423
GUAAGCUUUUUUACUUUAUUAUCUCUAUAAUUUAUUAUCUCUAUCCAUAUUUGUGGAUCGGGUAGUGGGAAAAGAGAUUAUAAUACUUGUCUUUCUCUCCUCUCCCUCCA: 0.329

Study 4
Target: CCNA2, cyclin fold, Cln2 fusion (human)
Method: yeast growth competition, sequencing
Medium: yeast
Notes: weak parent motif
Baseline: not given
Reading: higher = stronger binding
Measurement: normalised enrichment score
Starting sequence: MASTL docking peptide (human); PMIAKNLMCELDE
I3L: -0.202
M8D: -0.204
M8H: -0.0195
D12F: 0.605
K5Q: -0.653
M8W: 0.171
D12L: 0.137
M8I: -0.207
I3Q: -0.177
D12C: -0.199
I3E: -0.385
M8K: 0.133
C9S: 0.0438
K5G: -0.608
L7M: -0.604
L11P: -0.32
L11D: -0.761
K5D: -0.127
C9A: 0.0307
C9H: -0.0157
C9N: -0.0805
L7Q: -0.0735
A4P: 0.305
I3R: 0.195
C9P: 0.0158

Study 5
Target: BATF3, bZIP domain (human)
Method: DHFR protein complementation
Medium: yeast
Notes: single substitutions, most at no-binding floor
Baseline: wild-type JUN-FOS pair
Reading: higher = stronger binding
Measurement: binding fitness
Starting sequence: JUN, bZIP domain (human); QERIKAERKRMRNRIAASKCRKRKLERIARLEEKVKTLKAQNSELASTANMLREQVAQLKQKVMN; partner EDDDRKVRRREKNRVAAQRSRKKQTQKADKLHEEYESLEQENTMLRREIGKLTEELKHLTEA
I28R: 0.279 natural log
R30N: 0.226 natural log
R53F: -0.0678 natural log
L38E: 0.0433 natural log
A57H: 0.127 natural log
I28W: 0.186 natural log
S43K: 0.314 natural log
Q41S: -0.904 natural log
K39S: 0.155 natural log
L59W: 0.13 natural log
E32I: 0.0904 natural log
L59G: 0.18 natural log
E32F: 0.0528 natural log
A46D: -0.0762 natural log
S47N: 0.17 natural log
E44Y: 0.137 natural log
E44Q: 0.172 natural log
S43D: 0.211 natural log
S47W: 0.19 natural log
E32Q: 0.0841 natural log
I28T: 0.192 natural log
M51V: 0.217 natural log
N42Q: 0.0647 natural log
K34W: 0.316 natural log
E33T: 0.148 natural log

Mixed results
PhoQ, residues 284 288 289 292 302 303 ASSHFY — fold induction (PhoP, residues 12 14 15 18 19 LYFRQ (Escherichia coli, UniProt P23836); Sort-seq, measured: YFP reporter; E. coli; PhoQ-PhoP variant library, added: 10 µM Mg2+; baseline: high Mg2+ state, higher = stronger signaling): 19.7

A few entries again (study 4):
K5G: -0.608
L7M: -0.604
L11P: -0.32
L11D: -0.761
K5D: -0.127
C9A: 0.0307
C9H: -0.0157
C9N: -0.0805
L7Q: -0.0735
